Results collected from several papers.

Cc1c(C)c2c(c(C)c1O)CCC(C)(COc1ccc(CC3SC(=O)NC3=O)cc1)O2 (stereo not drawn) — point of departure (HepG2; extracellular flux, item: oxygen consumption rate; 6 h, distribution mode 1): 0.204 µM
CCn1cc(-c2cc(Cn3ccnc3)cc3c2CCN([C@H](c2cc(OC)ccn2)C2CC2)C3=O)c(C(F)(F)F)n1 — EC50 (Calu-3; cell growth, inhibitor; 120 h): 24.6 µM
CC(=O)c1nn(-c2ccc(Cl)cc2)/c(=N/N=C(\C)c2ccc(NC(=O)c3ccc(C)cc3)cc2)s1 — viability (HepG2; 1.25 µM): 18%
COc1cc(-c2cnn(C)c2C)ccc1Nc1ncc2ccnc(NCC(C)(C)C)c2n1 — GI50 (CAL-51; cell growth; 72 h): 0.27 µM
CCn1cc(-c2cc(Cn3ccoc3=N)cc3c2CCN([C@@H](C)c2cc(OC)ccn2)C3=O)c(C(F)(F)F)n1 — EC50 (SH-10-TC; cell growth, inhibitor; 120 h): 8.1 µM
CCOc1cc2ncc(C#N)c(Nc3ccc(F)c(Cl)c3)c2cc1NC(=O)/C=C/CN(C)C — inhibition (BT-16; cell viability, MTT; 10 µM, 72 h): 91.9%
CC(C)NCC(O)c1ccc(O)c(O)c1 (stereo not drawn) — sarcomere length (mouse ventricular cardiomyocytes; dose not given, 0.243 s): 1.8 µm
Cn1cc(-c2ccc(-c3cncc(Cl)c3N3CCC4(CCNC4=O)CC3)cc2)cn1 — log2 fold change (COLO 205; gene expression, microarray, item: HIVEP2 mRNA; concentration not given, 2 h; reference: untreated cells): 2.15
COc1cc([C@@H]2c3cc4c(cc3[C@@H](O[C@@H]3O[C@@H]5CO[C@@H](C)O[C@H]5[C@H](O)[C@H]3O)[C@H]3COC(=O)[C@H]23)OCO4)cc(OC)c1O — spheroid surface area reduction (HepG2 spheroids; planimetry; 17 µM, 96 h; reference: solvent control): 9.51%
c1ccc2[nH]ccc2c1 — mRNA level, LS mean (HCT-8; RNA-seq, item: SEMA6C; concentration not given): 24.3 counts per million
CCc1cnc(N2CCC(c3nc(COc4ccc(-n5cnnn5)cc4)cs3)CC2)nc1 — normalized enrichment score (HEK-293T; RNA-seq GSEA, item: HALLMARK_COAGULATION; concentration not given; direction not given): 1.14
Cc1cccc(C)c1OCC(=O)N[C@@H](Cc1ccccc1)[C@@H](O)C[C@H](Cc1ccccc1)NC(=O)[C@H](C(C)C)N1CCCNC1=O — maximal efficacy (ΔE-expressing cells; ΔE mislocalization, high-content imaging): 70%
CC(C)C[C@H](NC(=O)[C@H](CCc1ccccc1)NC(=O)CN1CCOCC1)C(=O)N[C@@H](Cc1ccccc1)C(=O)N[C@@H](CC(C)C)C(=O)[C@@]1(C)CO1 — inhibition (BT-16; cell viability, MTT; 10 µM, 72 h): 92.5%
Cc1cc(Nc2ncc(Cl)c(Nc3ccccc3S(=O)(=O)C(C)C)n2)c(OC(C)C)cc1C1CCNCC1 — log2 fold change (CLB-GE; phosphoproteomics LC-MS/MS, item: AP2B1 phosphorylation; 200 nM, 60 min; reference: untreated): -2.26
O=C(Nc1c[nH]nc1-c1nc2ccc(CN3CCOCC3)cc2[nH]1)NC1CC1 — inhibition (BT-16; cell viability, MTT; 10 µM, 72 h): 95.6%
CCN1CCN(c2cc(N3CCN(CC)CC3)nc(NCCNc3ccnc4cc(Cl)ccc34)n2)CC1 — autophagy flux (N27 rat dopaminergic cells; dose not given, 36 h): inhibited
CC1(C)CC[C@]2(C(=O)O)CC[C@]3(C)C(=CC[C@@H]4[C@@]5(C)CC[C@H](O)C(C)(C)[C@@H]5CC[C@]43C)[C@@H]2C1 — Aβ40 and Aβ42 levels (N2a stably expressing human APP695; ELISA; concentration not given; increase): 15 to 25%
CNC(=O)c1ccc(Nc2ncc(C(F)(F)F)c(NCc3nccnc3N(C)S(C)(=O)=O)n2)cc1 — inhibition (BT-16; cell viability, MTT; 10 µM, 72 h): 90.1%
